Experimental data gathered from unrelated publications.
“And” joins repeats or separate records; there may be more than shown. Values after ≈ are worked out from the molar mass of the structure shown.
Organism: Staphylococcus aureus

Compound	test	test system	conditions	scale	measurement	value
CC[C@H](C)[C@H](NC(=O)[C@H](C)NC(=O)[C@H](CCCCN)NC(=O)[C@H](CC(C)C)NC(=O)[C@H](C)NC(=O)[C@@H](NC(=O)[C@H](Cc1c[nH]cn1)NC(=O)[C@H](CC(C)C)NC(=O)[C@@H](NC(=O)[C@@H](NC(=O)[C@H](CCCCN)NC(=O)[C@H](C)NC(=O)[C@H](C)NC(=O)[C@H](CO)NC(=O)[C@H](CCCCN)NC(=O)[C@H](Cc1ccccc1)NC(=O)[C@@H](NC(=O)[C@H](CCCCN)NC(=O)[C@H](CC(C)C)NC(=O)[C@H](Cc1ccccc1)NC(=O)[C@H](CO)NC(=O)[C@H](CCCCN)NC(=O)[C@H](Cc1c[nH]c2ccccc12)NC(=O)[C@H](CCCCN)NC(C)=O)[C@@H](C)O)[C@@H](C)O)C(C)C)[C@@H](C)O)C(=O)N[C@@H](CO)C(=O)N[C@@H](CO)C(N)=O	–	MSSA	67 strains	–	MBC90	16 µg/mL (≈ 5.45 µM)
CO/N=C(\C(=O)N[C@@H]1C(=O)N2C(C(=O)O)=C(CSC(=O)c3ccco3)CS[C@H]12)c1csc(N)n1	–	CAAS-2019-CAAS-2019-13 clinical drug-resistant isolate, 25% plasma	–	–	MBC	64 µg/mL
OB(O)c1csc2ccccc12	OD600	USA300 fphE::Tn transposon mutant	5 µM	relative to: wild type	growth	81.4% and 77.9% and 66.3% and 60.3% and 72.7% and 57.5%
Cc1c2c(nn1C)CSCc1cc(n(C)n1)CSc1cc(c3ccccc3c1)OCCCc1c(C(=O)O)n(C)c3c-2c(Cl)ccc13	membrane permeability, propidium iodide uptake	SA113	4 x MIC	relative to: untreated control	fluorescence intensity	1.2 fold
CCCCCCCCCC(=O)N[C@@H](Cc1c[nH]c2ccccc12)C(=O)N[C@H](CC(N)=O)C(=O)N[C@@H](CC(=O)O)C(=O)N[C@@H]1C(=O)NCC(=O)N[C@@H](CCCN)C(=O)N[C@@H](CC(=O)O)C(=O)N[C@H](C)C(=O)N[C@@H](CC(=O)O)C(=O)NCC(=O)N[C@H](CO)C(=O)N[C@@H]([C@H](C)CC(=O)O)C(=O)N[C@@H](CC(=O)c2ccccc2N)C(=O)O[C@@H]1C	broth microdilution	BR-VRSA strain 880, Mueller-Hinton broth, Mg2+ 10 mg/L	16 h, added: Ca2+ 2.5 mM	–	MIC	0.25 µg/mL (≈ 0.154 µM)
CC[C@H](C)[C@H](NC(=O)[C@H](CCCCN)NC(=O)[C@H](CCCCN)NC(=O)[C@H](Cc1ccccc1)NC(=O)[C@@H](NC(=O)[C@@H](NC(=O)[C@H](CCCNC(=N)N)NC(=O)[C@H](Cc1ccccc1)NC(=O)[C@@H](NC(=O)[C@H](CCCCN)NC(=O)[C@H](CCCCN)NC(=O)[C@@H](N)CCSC)[C@@H](C)CC)C(C)C)[C@@H](C)CC)C(=O)N[C@@H](CC(C)C)C(=O)N[C@@H](CCCCN)C(=O)N[C@@H](CCCNC(=N)N)C(=O)N[C@@H](CC(C)C)C(=O)N[C@H](C(=O)N[C@H](C(=O)O)C(C)C)[C@@H](C)CC	broth microdilution	ATCC 25923	added: 150 mM NaCl	–	MIC	4 µg/mL (≈ 1.76 µM)
C=CC[C@@H]1c2ccc(OC)c(OC)c2CN2CCc3cc4c(cc3[C@H]12)OCO4	–	P2rx7 A312V/A312V mice, skin wound infection	dose not given, day 1	relative to: day 0	relative wound size	0.98 and 0.86 and 1 and 1.49
CN[C@H](CC(C)C)C(=O)N[C@H]1C(=O)N[C@@H](CC(N)=O)C(=O)N[C@H]2C(=O)N[C@H]3C(=O)N[C@H](C(=O)N[C@H](C(=O)O)c4cc(O)cc(O)c4-c4cc3ccc4O)[C@H](O)c3ccc(c(Cl)c3)Oc3cc2cc(c3O[C@@H]2O[C@H](CO)[C@@H](O)[C@H](O)[C@H]2O[C@H]2C[C@](C)(N)[C@H](O)[C@H](C)O2)Oc2ccc(cc2Cl)[C@H]1O	–	CAAS-2019-CAAS-2019-10 clinical blaZ-resistant isolate, PBS	–	–	MBC	4 µg/mL (≈ 2.76 µM)
CC(=O)NC[C@H]1CN(c2ccc(N3CCOCC3)c(F)c2)C(=O)O1	–	MRSA strain 3	–	–	MIC	0.5 µg/mL (≈ 1.48 µM)
